Measured values from different studies.
Each numbered part is a random draw from the data of one study; scales do not carry over between parts. Substitutions count along the parent as printed.

Study 1
Target: Prothrombin, mature alpha-thrombin (F2, Homo sapiens, UniProt P00734)
Technique: aptamer microarray, sandwich
Molecule type: DNA with 2'F-ANA
Sample: in vitro
Tested at: 200 nM
Notes: whole 15-mer aptamer, many near background
Together with: Cy3 exosite-II aptamer, 400 nM
Reading: higher = stronger binding
Oligonucleotide: GGTTGGTGTGGTTGG
Modification	mean fluorescence intensity [a.u.]
2'F-ANA at 1 3 4 5 6 9 10 11 12	53.8
2'F-ANA at 3 10 12 13 14 15	408
2'F-ANA at 2 3 4 7 8 9 11 12 13 14 15	232
2'F-ANA at 1 4 5 7 9 11 12 15	75.2
2'F-ANA at 3 4 6 9 12 13	582
2'F-ANA at 1 2 3 6 10 13	59.4
2'F-ANA at 3 4 5 6 7 9 14	78.1
2'F-ANA at 1 2 3 6 7 9 10 11 13 15	63.2
2'F-ANA at 1 4 6 7 8 9 12 14	55
2'F-ANA at 1 2 3 4 5 6 7 10 12	47.4

Study 2
Target: ABI1, truncated, D143A, DHFR fusion (Arabidopsis thaliana)
Technique: DHFR PCA, deep sequencing
Sample: yeast
Notes: methotrexate growth selection, single substitutions
Together with: (+)-ABA 0.39 µM
Reference: wild-type fitted maximum
Reading: higher = stronger binding
Parent: PYL1, truncated, DHFR fusion (Arabidopsis thaliana); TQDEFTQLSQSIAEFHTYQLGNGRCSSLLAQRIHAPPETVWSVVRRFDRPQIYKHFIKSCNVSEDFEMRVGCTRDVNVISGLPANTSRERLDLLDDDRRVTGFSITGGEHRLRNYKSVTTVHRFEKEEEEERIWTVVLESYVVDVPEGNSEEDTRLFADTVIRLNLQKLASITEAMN
Variant	relative binding score
V145Q	-19.6%
L94N	-7.64%
R111P	20.7%
K168N	75.9%
L164V	36.8%
Y115E	-10%
S42C	9.1%

Study 3
Target: CCNA1, cyclin fold, Cln2 fusion (human)
Technique: yeast growth competition, sequencing
Sample: yeast
Notes: weak parent motif
Reference: not given
Reading: higher = stronger binding
Parent: WEE1 docking peptide (human); HKTFRKLRLFDTP; partner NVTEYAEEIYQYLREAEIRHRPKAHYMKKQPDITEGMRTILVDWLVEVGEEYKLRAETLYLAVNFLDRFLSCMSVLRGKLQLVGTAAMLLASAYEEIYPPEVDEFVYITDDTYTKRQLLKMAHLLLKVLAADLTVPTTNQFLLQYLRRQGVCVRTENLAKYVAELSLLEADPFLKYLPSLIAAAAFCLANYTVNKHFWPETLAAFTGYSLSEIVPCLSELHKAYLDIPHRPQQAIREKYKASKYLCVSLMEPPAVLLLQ
Variant	normalised enrichment score
HKTFRKLRLFFTP [D11F]	0.448
HKTFRKLQLFDTP [R8Q]	0.436
HKTFFKLRLFDTP [R5F]	0.0623
HKPFRKLRLFDTP [T3P]	0.261
HKTFRKLRLFDTD [P13D]	0.336
HKTFRKLWLFDTP [R8W]	0.323
HKTFRKLYLFDTP [R8Y]	0.712
LKTFRKLRLFDTP [H1L]	0.0643
HKTFRKLRLFDTY [P13Y]	0.522

Mixed results
Substance	target	test	test system	conditions	scale	quantity	value
PhoQ, residues 284 288 289 292 302 303 TLASMF	PhoP, residues 12 14 15 18 19 YHFSH (Escherichia coli, UniProt P23836)	Sort-seq, refers to: YFP reporter	E. coli	PhoQ-PhoP variant library, together with: 10 µM Mg2+	reference: high Mg2+ state, higher = stronger signaling	fold induction	2.93

For quick reference, copied from above (study 1):
Modification	mean fluorescence intensity [a.u.]
2'F-ANA at 3 4 5 6 7 9 14	78.1
2'F-ANA at 1 4 5 7 9 11 12 15	75.2
2'F-ANA at 1 2 3 6 10 13	59.4
